Published values pooled from the literature.
Every numbered part comes from another study and shows a few of its results, in no order. Substitutions count along the parent as printed.

Set 1 — technique: protein binding microarray; form: double-stranded DNA, one strand shown; sample: in vitro; concentration: not given; relative to: not given; reading: higher = stronger binding
Target: Histone acetyltransferase KAT6A, winged helix 1, GST fusion (KAT6A, Homo sapiens, UniProt Q92794, residues 1-85)
Setting: 8-mer, flanks averaged, mean of 2 arrays, mostly near background
Construct (chain): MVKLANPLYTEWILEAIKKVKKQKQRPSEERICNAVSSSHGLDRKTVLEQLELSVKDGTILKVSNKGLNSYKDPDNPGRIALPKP
`CGGCCGTA` has an E-score of 0.445.
With `ACATGCTG` the E-score was -0.181.
For `AGTATGAG`, the E-score was -0.172.
The E-score of `AGTTGCGC` is reported as 0.261.
The E-score of `AGTGTGAT` is reported as -0.133.
`AGGTCGTC` gave an E-score of 0.0311.
For `ATAAAGTA`, the E-score was -0.199.
The E-score of `CGAGGACG` is reported as 0.107.
`GAGAGATC` has an E-score of -0.192.
For `CGGGCACG`, the E-score was 0.261.
For `ACGTCCCG`, the E-score was 0.265.
`CGGCCGCA` has an E-score of 0.448.
For `ACCAAGGA`, the E-score was -0.189.
The E-score of `CTTGAGGC` is reported as 0.0325.
`CGTAGAAG` has an E-score of -0.00225.
For `ACGACGGC`, the E-score was 0.374.
`ATTGCGCG` has an E-score of 0.439.
For `CGCTGTAC`, the E-score was 0.178.
With `AGCGACTC` the E-score was -0.0643.

Set 2 — target: CCNB2, cyclin fold, Cln2 fusion (human); technique: yeast growth competition, sequencing; sample: yeast; setting: weak parent motif; relative to: not given; reading: higher = stronger binding
Parent: WEE1 docking peptide (human); HKTFRKLRLFDTP; partner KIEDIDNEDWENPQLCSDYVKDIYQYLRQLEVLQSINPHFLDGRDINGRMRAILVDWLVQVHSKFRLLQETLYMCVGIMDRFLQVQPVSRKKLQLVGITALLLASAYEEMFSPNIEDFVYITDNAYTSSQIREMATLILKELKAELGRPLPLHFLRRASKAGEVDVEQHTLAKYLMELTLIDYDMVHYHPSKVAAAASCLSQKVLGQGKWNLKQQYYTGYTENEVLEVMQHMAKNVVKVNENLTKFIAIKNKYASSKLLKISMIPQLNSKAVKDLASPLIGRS
`F10S`: “normalised enrichment score” -0.0533.
`P13V`: “normalised enrichment score” 0.881.
`R5I`: “normalised enrichment score” 0.586.
`R8P`: “normalised enrichment score” 0.252.
For `K2I`, “normalised enrichment score” read 0.314.
Under “normalised enrichment score”, `K2M` is recorded as 0.146.
For `R8V`, “normalised enrichment score” read 0.547.
Under “normalised enrichment score”, `F4H` is recorded as 0.744.
`H1S` — result for “normalised enrichment score”: 1.03.
For `T12Y`, “normalised enrichment score” read 0.0994.
`H1R`: “normalised enrichment score” 1.6.
`T12M` — result for “normalised enrichment score”: 1.29.
For `K6R`, “normalised enrichment score” read 0.668.
Under “normalised enrichment score”, `F10Q` is recorded as -0.0671.
`L9Y` — result for “normalised enrichment score”: 1.01.
For `R5P`, “normalised enrichment score” read -0.457.

Set 3 — technique: DHFR PCA, deep sequencing; sample: yeast; together with: (+)-ABA 0 µM; relative to: wild-type fitted maximum; reading: higher = stronger binding
Target: ABI1, truncated, D143A, DHFR fusion (Arabidopsis thaliana)
Setting: methotrexate growth selection, single substitutions
Parent: PYL1, truncated, DHFR fusion (Arabidopsis thaliana); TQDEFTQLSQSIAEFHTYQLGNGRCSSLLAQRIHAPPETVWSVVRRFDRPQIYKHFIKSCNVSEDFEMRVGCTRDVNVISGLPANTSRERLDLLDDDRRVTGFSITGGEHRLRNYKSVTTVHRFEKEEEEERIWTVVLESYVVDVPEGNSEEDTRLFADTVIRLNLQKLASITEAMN
Under “relative binding score”, `V142Q` is recorded as 6.08%.
Under “relative binding score”, `V118N` is recorded as -4.12%.
`D75E`: “relative binding score” 46.3%.
For `G21I`, “relative binding score” read 6.86%.
Under “relative binding score”, `L82F` is recorded as 68.9%.
`G102D` — result for “relative binding score”: -5.58%.
`Y141C`: “relative binding score” 4.57%.
Under “relative binding score”, `A175L` is recorded as 2.84%.
Under “relative binding score”, `T86K` is recorded as 8.96%.
`V62Y`: “relative binding score” -2.51%.
`R155P`: “relative binding score” 3.36%.
For `G71N`, “relative binding score” read -1.1%.
`V161K` — result for “relative binding score”: 1.94%.
Under “relative binding score”, `T39F` is recorded as 4.44%.
Under “relative binding score”, `E130H` is recorded as 26.6%.
`L156W` — result for “relative binding score”: 3.67%.

Set 4 — technique: competition protein-binding microarray; form: double-stranded DNA, one strand shown; sample: in vitro; concentration: 2 µM; together with: Cbf1 competitor, 0.05 µM; reading: higher = stronger binding
Target: Phosphate system positive regulatory protein PHO4, full length, GST-tagged (PHO4, Saccharomyces cerevisiae, UniProt P07270, residues 1-312)
Setting: whole 60-bp probe, lowest competitor level
Target sequence (chain): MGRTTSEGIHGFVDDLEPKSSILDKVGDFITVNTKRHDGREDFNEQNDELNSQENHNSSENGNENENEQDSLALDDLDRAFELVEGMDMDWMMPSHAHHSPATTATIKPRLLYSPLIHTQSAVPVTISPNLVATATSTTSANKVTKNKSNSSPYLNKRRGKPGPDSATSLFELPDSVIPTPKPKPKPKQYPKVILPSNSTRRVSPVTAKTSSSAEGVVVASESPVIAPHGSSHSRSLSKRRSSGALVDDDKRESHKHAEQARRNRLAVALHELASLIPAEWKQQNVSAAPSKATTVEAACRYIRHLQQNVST
The fluorescence intensity of `CTTCTGTAAATTTGCTGTGTGGGTGGACGCGCCCCGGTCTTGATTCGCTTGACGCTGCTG` is reported as 4850 a.u.
The fluorescence intensity of `AAAGCGGTAATTTGTCACTCAACTTCACATATCTATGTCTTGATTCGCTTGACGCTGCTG` is reported as 3700 a.u.
For `AGCCAGCATTGTTGTCATGCGAGATGTCTAAGAAAAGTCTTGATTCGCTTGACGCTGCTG`, the fluorescence intensity was 4720 a.u.
The fluorescence intensity of `CTGATTCGTTGGGCTTACGTGATGGTTCCTGGCATTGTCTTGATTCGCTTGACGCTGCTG` is reported as 6020 a.u.
With `CTTCTGTAAATTTTTCACGTGTAGTGAAGCGCCCCGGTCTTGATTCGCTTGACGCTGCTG` the fluorescence intensity was 12300 a.u.
`AAATTACTAAGTTGGCTGGTGGGTGACGCCGTATGAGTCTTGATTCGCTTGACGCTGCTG` has a fluorescence intensity of 3990 a.u.
The fluorescence intensity of `CATCCTCTTACATCGCACGTGATGGTATACTACTAAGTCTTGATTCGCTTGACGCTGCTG` is reported as 19400 a.u.
The fluorescence intensity of `TTGTTGATCCTGGTAGGCGTGGCCGTACCGCCATTGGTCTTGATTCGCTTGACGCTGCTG` is reported as 7200 a.u.
The fluorescence intensity of `AAAGCGGTAATTTGATAAGTGGGTGCAGATATCTATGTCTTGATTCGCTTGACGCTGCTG` is reported as 3740 a.u.
With `AACTGAGGTTTTCGTCACATGTACCGCCCTTTCTTCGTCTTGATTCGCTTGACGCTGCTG` the fluorescence intensity was 7340 a.u.
`CGAATCAGGTTTCCCAACGTGTGGACCTCCTTCTCAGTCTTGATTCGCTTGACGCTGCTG` has a fluorescence intensity of 9420 a.u.
`GTCTTGTCTCATTGCAGCGTGGGTGTCCCCACTTCAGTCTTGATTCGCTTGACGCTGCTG` gave a fluorescence intensity of 7660 a.u.

Set 5 — technique: RNA Bind-n-Seq; form: RNA; sample: in vitro; concentration: 365 nM; relative to: no-protein control; reading: higher = stronger binding
Target: RNA binding protein fox-1 homolog 2, RRM domain, GST-SBP tag (RBFOX2, Homo sapiens, UniProt O43251-10, residues 100-194)
Setting: natural RNA segment, single round, ends assumed
Construct (chain): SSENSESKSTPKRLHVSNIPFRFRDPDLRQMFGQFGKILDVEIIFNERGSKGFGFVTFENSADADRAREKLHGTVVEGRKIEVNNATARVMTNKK
For `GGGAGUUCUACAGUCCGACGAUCAUAUAACGAGGUAAUGCAUGUAAGCAUUUAGUACCAUGCCUGGCACAUAGUAAGCACUCAAUAAAUGGUAGUUACUUUUGUUGAGCUCAGCUGGUAGUUUGACCUCCGUUUGGAAUUCUCGGGUGCCAA`, “RBNS enrichment (R)” read 2.72.
`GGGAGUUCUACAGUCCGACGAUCCUAUACAAGUGCACUUUGAUCUGUAAAUAGUUCUAAUCAAAGCAUAACAAAACACUGCUUCAAGAUUUACUUUUAAAUCUAAUUUAAGGGGUGUUUUUACUGUGUUUUUGUGGAAUUCUCGGGUGCCAA`: “RBNS enrichment (R)” 0.447.
`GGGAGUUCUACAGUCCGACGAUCGUUUCUCUACUGGUCAGGAUGCUUUUCUCAUAAGGGUCGACUUUUUUCACCAGUCACAUAAACACUAUGUGGACUGGCAGUGGUUCUCUGCUCCUCCACAUCCUGGAGCGUGGAAUUCUCGGGUGCCAA`: “RBNS enrichment (R)” 0.268.
`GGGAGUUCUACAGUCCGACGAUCGAUGGUGGAAUCUUUGGGGAAACUUUAAAGUAACUAAUUUUUAUUUAAAAAAAAAAUCUCGGCAGACAUAAGAGAACACAACCCCCCAUGCACAUCUGUAAAUGACUGUAUGGAAUUCUCGGGUGCCAA`: “RBNS enrichment (R)” 0.597.
Under “RBNS enrichment (R)”, `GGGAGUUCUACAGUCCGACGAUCGGCAUCCAGGUCAUCUUUUCUUUUCUCCAACCAUUAUUAAAAUAACUUGACACUUUGGGAGGCCAAGCUGGGCAGAUCACCUGAGGUCAGGAGUUUGAGACCAGCCUGGCUGGAAUUCUCGGGUGCCAA` is recorded as 0.498.
For `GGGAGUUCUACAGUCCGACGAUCUAAGGGUUUGUUUUGUUUUGUUUUUUAAAGUAAGGCUGUCUCUCUUUCCCAGUAACAUUCCUGAGUCUACUGUCCUUAUCUUAGUGUUGUACUUGCAUGACAUGGAUAUCUGGAAUUCUCGGGUGCCAA`, “RBNS enrichment (R)” read 8.25.
`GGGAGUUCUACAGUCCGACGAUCAUUGGUAUAGCAGUGGUAUUUGCAGACUGGGAUCAUAAGGAGCCCUUAAAUACUUGUUAUUGACUGGGGUUAUUUUUAUGCUGUAGCAAAUGUGACAGGCUCUUUUUAGCUGGAAUUCUCGGGUGCCAA` — result for “RBNS enrichment (R)”: 0.412.
`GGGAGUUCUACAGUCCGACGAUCUGUAAAAUAUGAACAAGGAUUCAUGAUUUGUAAAUGCUGUUUAUUUAUUGAUUGCUUCUUUCCAAAAUCGAAAAGAAAGAAAAAAGAACGUGACAGGAGAAGGGAAGCUGUGGAAUUCUCGGGUGCCAA`: “RBNS enrichment (R)” 0.699.

For quick reference, copied from above (set 5):
Under “RBNS enrichment (R)”, `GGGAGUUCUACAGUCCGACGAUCGGCAUCCAGGUCAUCUUUUCUUUUCUCCAACCAUUAUUAAAAUAACUUGACACUUUGGGAGGCCAAGCUGGGCAGAUCACCUGAGGUCAGGAGUUUGAGACCAGCCUGGCUGGAAUUCUCGGGUGCCAA` is recorded as 0.498.
For `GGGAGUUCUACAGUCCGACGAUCUAAGGGUUUGUUUUGUUUUGUUUUUUAAAGUAAGGCUGUCUCUCUUUCCCAGUAACAUUCCUGAGUCUACUGUCCUUAUCUUAGUGUUGUACUUGCAUGACAUGGAUAUCUGGAAUUCUCGGGUGCCAA`, “RBNS enrichment (R)” read 8.25.
`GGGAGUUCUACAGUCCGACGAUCAUUGGUAUAGCAGUGGUAUUUGCAGACUGGGAUCAUAAGGAGCCCUUAAAUACUUGUUAUUGACUGGGGUUAUUUUUAUGCUGUAGCAAAUGUGACAGGCUCUUUUUAGCUGGAAUUCUCGGGUGCCAA` — result for “RBNS enrichment (R)”: 0.412.
`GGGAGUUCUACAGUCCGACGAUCUGUAAAAUAUGAACAAGGAUUCAUGAUUUGUAAAUGCUGUUUAUUUAUUGAUUGCUUCUUUCCAAAAUCGAAAAGAAAGAAAAAAGAACGUGACAGGAGAAGGGAAGCUGUGGAAUUCUCGGGUGCCAA`: “RBNS enrichment (R)” 0.699.
